Results of several laboratories.
Parts stem from different laboratories: compare values within a part only. Substitutions count along the parent as printed.

Study 1
Target: Ras GTPase-activating protein-binding protein 1, C-terminal RGG region (G3BP1, Homo sapiens, UniProt Q13283)
Sequence of UniProt Q13283 (whole entry, looked up): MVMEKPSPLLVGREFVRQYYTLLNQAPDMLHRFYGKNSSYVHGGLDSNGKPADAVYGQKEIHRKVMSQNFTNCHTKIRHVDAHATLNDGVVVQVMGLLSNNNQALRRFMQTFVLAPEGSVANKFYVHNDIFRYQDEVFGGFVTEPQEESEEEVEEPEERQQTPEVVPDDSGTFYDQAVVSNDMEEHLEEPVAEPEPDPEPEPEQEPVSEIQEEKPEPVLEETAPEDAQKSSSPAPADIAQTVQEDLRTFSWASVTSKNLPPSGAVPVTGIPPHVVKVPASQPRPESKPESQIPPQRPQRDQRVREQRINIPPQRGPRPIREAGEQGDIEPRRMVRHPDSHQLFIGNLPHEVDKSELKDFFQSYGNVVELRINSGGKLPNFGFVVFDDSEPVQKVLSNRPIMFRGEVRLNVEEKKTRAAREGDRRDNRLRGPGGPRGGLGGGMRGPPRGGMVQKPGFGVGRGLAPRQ
Technique: RNA Bind-n-Seq
Form: RNA
Matrix: in vitro
Concentration: 1 µM
Setting: whole 134-nt RNA, ends assumed
With: 150 mM KCl
Baseline: input library
Direction: higher = stronger binding
Measurement: log2 enrichment
Shared flanks, not repeated: GGGAGUUCUACAGUCCGACGAUC … UGGAAUUCUCGGGUGUCAAGG
Sequence = UGGGAGUUGGAUUUUGUUUAUUUUUUUAGCUCAUUUCCAGGGGUGGGAAUUUUUUUUUAAUAUGUGUCAUGAAUAAAGUUGUUUUUGAAA; value = 3.46
Sequence = GCAGGAAGUAAAAACAAAUGGACAUGCUUCGGAUAGUGGCAGGGGUGGGGGUUGCUAAGGAAAGGGUGGGAUGGGAGUGGGUAAAGAGUU; value = 2.57
Sequence = CACAGACAACACGCACCCACACCGACACAGAGGGAAGGGGUUGGGAUGGGGACAGGGUGCACAGCAGGGCGGGGUAGGACCCCAGCCCCU; value = -0.59
Sequence = GUCCUGUGCUACACAUCGUAUGUACCGAAUCAAAUUUUUAAACCCCCCCAAACCCAAAAAAGUAUUAUGUUACGCCGUUCGGAUCUGCAC; value = -0.73
Sequence = CUGUGCUACACAUCGUAUGUACCGAAUCGGGGUUUUUUUGGUUUUUUUGGGGUUUUUUUGGAAAGUAUUAUGUUACGCCGUUCGGAUCUG; value = -1.2
Sequence = UCCUGUGCUACACAUCGUAUGUACCGAAUCGGGGUUUUUUUGGGGAAAAAGGGGAGGGGAAAGUAUUAUGUUACGCCGUUCGGAUCUGCA; value = 1.54

Study 2
Target: CCNF, cyclin fold, Cln2 fusion (human)
Technique: yeast growth competition, sequencing
Matrix: yeast
Setting: strong parent motif
Baseline: not given
Direction: higher = stronger binding
Measurement: normalised enrichment score
Parent: INSM1 docking peptide (human); PKAIRKLHFEDEV; partner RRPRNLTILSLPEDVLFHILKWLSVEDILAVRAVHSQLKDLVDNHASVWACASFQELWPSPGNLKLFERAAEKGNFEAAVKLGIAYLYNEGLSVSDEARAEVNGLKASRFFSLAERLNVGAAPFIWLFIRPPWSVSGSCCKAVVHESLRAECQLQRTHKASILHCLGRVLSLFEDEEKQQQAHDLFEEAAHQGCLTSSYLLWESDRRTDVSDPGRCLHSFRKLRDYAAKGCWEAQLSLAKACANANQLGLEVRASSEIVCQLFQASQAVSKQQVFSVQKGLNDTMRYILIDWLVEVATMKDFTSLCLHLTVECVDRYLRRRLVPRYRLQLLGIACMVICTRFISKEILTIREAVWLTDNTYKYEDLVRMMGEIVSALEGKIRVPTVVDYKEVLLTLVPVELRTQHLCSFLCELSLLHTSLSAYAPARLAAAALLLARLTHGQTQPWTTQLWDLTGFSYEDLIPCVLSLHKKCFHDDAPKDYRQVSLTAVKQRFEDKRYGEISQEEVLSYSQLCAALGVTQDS
Variant = K6I; value = 5.54
Variant = R5P; value = -0.435
Variant = F9N; value = -0.0325
Variant = D11R; value = 7.17
Variant = H8R; value = 7.56

Study 3
Target: ABI1, truncated, D143A, DHFR fusion (Arabidopsis thaliana)
Technique: DHFR PCA, deep sequencing
Matrix: yeast
Setting: methotrexate growth selection, single substitutions
With: (+)-ABA 2500 µM
Baseline: wild-type fitted maximum
Direction: higher = stronger binding
Measurement: relative binding score
Parent: PYL1, truncated, DHFR fusion (Arabidopsis thaliana); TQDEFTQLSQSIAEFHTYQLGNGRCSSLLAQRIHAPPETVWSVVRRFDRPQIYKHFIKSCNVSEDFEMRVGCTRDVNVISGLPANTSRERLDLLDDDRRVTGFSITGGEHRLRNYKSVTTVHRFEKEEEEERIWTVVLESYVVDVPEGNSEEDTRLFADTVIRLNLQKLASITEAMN; partner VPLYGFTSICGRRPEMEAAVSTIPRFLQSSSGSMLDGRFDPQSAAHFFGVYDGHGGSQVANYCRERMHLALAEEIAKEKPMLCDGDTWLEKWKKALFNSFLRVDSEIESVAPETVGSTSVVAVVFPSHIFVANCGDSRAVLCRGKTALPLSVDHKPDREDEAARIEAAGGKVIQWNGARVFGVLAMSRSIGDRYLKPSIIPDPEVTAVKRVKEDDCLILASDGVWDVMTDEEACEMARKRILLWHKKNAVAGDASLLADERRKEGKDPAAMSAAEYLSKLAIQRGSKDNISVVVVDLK
Variant = E127I; value = 92%
Variant = F157R; value = 3.14%
Variant = S11R; value = 94.7%
Variant = N61G; value = 96%
Variant = V142S; value = 96.7%
Variant = S104Y; value = 77.5%
Variant = N177H; value = 106%
Variant = A158T; value = 98.7%

Other studies, line by line
Substance = PhoQ, residues 284 288 289 292 302 303 SSCCRF; target = PhoP, residues 12 14 15 18 19 STHWV (Escherichia coli, UniProt P23836); test = Sort-seq, item: YFP reporter; system = E. coli; conditions = PhoQ-PhoP variant library, with: 10 µM Mg2+; how to read = baseline: high Mg2+ state, higher = stronger signaling; measurement = fold induction; value = 13.5
